Experimental data collected from several papers.
Each numbered part is a random draw from the data of one study; scales do not carry over between parts.

Series 1 — technique: universal PBM; molecule type: double-stranded DNA, one strand shown; sample: in vitro; concentration: not given; direction: higher = stronger binding; endpoint: E-score
Target: Sal-like protein 4, full length isoform B (SALL4, Homo sapiens, UniProt Q9UJQ4-2, residues 1-616)
Notes: 8-mer, flanks averaged, mean of replicates
Construct (chain): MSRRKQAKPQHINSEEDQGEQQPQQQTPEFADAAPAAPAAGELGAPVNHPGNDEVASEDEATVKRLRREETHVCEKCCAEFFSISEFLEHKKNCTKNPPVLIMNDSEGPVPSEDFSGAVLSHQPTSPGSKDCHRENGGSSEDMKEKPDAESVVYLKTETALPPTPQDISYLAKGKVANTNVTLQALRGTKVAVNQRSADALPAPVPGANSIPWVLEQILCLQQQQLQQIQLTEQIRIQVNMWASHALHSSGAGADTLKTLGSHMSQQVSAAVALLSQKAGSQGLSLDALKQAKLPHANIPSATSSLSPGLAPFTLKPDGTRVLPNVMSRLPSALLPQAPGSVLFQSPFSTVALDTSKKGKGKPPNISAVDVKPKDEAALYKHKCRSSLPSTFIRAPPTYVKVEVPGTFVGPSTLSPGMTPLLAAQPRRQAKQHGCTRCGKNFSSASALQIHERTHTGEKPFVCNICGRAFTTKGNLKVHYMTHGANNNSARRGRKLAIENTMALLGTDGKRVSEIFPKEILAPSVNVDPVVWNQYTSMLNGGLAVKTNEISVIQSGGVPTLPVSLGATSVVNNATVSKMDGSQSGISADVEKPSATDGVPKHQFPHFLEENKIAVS
CCAGCTGC: -0.354
GACGGTAA: -0.00323
GTACTAAC: 0.0433
GCGGTGCA: -0.252
CCCGGGAC: -0.326
ACGAGAAG: -0.0486

Series 2 — technique: protein binding microarray; molecule type: double-stranded DNA, one strand shown; sample: in vitro; concentration: not given; baseline: not given; direction: higher = stronger binding; endpoint: E-score
Target: Histone acetyltransferase KAT6A, both winged helices, GST fusion (KAT6A, Homo sapiens, UniProt Q92794, residues 1-181)
Notes: 8-mer, flanks averaged, mean of 2 arrays, mostly near background
Construct (chain): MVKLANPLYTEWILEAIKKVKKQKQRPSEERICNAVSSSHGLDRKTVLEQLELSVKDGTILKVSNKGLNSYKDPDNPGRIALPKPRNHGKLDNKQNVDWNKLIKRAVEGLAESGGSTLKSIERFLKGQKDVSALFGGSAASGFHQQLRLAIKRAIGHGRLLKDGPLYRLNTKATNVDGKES
GACTCACA: -0.196
ACTTTATC: -0.0951
GTGCTTGA: -0.169
CGCTACGC: 0.323
ATCGATAA: 0.0533
AATTTTCA: -0.137
GGTGGGGA: -0.163

Series 3 — technique: protein-binding microarray; molecule type: double-stranded DNA, one strand shown; sample: in vitro; concentration: 940 nM top; notes: 60-bp whole probe; with: salmon DNA 0.4 mg/ml; baseline: random background probes; direction: higher = stronger binding; endpoint: fitted relative affinity; all sequences stand within: GCCTAGCAC … GTCTTGATTCGCTTGACGCTGCTG
Target: Interferon regulatory factor 5, full length, phosphomimetic (IRF5, Homo sapiens, UniProt Q13568-2, residues 1-514, S451D/S453D/S456D/S462D)
TCACTTATCCCTAATCTCACTGTGCTA: 1.64 z-score
TTAGATTTCAGTAGCGATTAGTGCTAG: 0.591 z-score
GACGATTTCAGTCTCGGGACGTGCTAG: 1.51 z-score
TATGCTTTCTTTAACTCATTGTGCTAG: 1.26 z-score
TTAGTACTGCTTATCCTTTAGTGCTAG: 0.408 z-score
TTAGATCTCAGTTTCTATTAGTGCTAG: 2.71 z-score
TTAGATCACAGTCTCGATTAGTGCTAG: 2.19 z-score
GACGGACTGGGTATCGTGACGTGCTAG: -0.269 z-score

Single results of other studies
PhoQ, residues 284 288 289 292 302 303 NSMLDC  fold induction (PhoP, residues 12 14 15 18 19 LHHVQ (Escherichia coli, UniProt P23836); Sort-seq, refers to: YFP reporter; E. coli; PhoQ-PhoP variant library, with: 10 µM Mg2+; baseline: high Mg2+ state, higher = stronger signaling): 1.31

Excerpt of the above (series 1):
GACGGTAA: -0.00323
CCCGGGAC: -0.326
